Measured values gathered from unrelated publications.
Numbers after ± are the reported error.
rep main protease: Replicase polyprotein 1ab, main protease (rep, Severe acute respiratory syndrome coronavirus 2, UniProt P0DTD1)
Chain of UniProt P35372 (whole entry, looked up): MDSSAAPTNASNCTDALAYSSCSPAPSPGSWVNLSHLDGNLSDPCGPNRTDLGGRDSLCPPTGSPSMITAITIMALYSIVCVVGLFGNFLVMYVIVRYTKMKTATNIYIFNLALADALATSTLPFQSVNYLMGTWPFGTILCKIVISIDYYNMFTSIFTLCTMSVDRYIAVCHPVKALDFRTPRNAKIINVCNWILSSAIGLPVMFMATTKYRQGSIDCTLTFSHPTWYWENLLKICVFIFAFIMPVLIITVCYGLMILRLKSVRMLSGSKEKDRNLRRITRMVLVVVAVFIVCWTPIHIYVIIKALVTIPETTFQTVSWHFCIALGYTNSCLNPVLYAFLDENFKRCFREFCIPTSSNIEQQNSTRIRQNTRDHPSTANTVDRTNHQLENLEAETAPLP

SMILES | target or system | test | test system | setting | scale | measurement | value
CC[C@H](C)[C@H](NC(=O)[C@H](CCCN)NC(=O)[C@H](CC(=O)O)NC(=O)[C@H](CC(C)C)NC(=O)C(C)(CC(C)C)NC(=O)[C@@H](NC(=O)[C@H](CO)NC(=O)[C@H](Cc1ccc(O)cc1)NC(=O)[C@H](CC(=O)O)NC(=O)[C@H](CO)NC(=O)[C@@H](NC(=O)[C@H](Cc1ccccc1)NC(=O)[C@@H](NC(=O)CNC(=O)[C@H](CCC(=O)O)NC(=O)C(C)(C)NC(=O)[C@@H](N)Cc1ccc(O)cc1)[C@@H](C)O)[C@@H](C)CC)[C@@H](C)CC)C(=O)N[C@@H](Cc1c[nH]cn1)C(=O)N[C@@H](CCC(N)=O)C(=O)NC(C)(C)C(=O)N[C@@H](CC(=O)O)C(=O)N[C@@H](Cc1ccccc1)C(=O)N[C@H](C(=O)N[C@@H](CCC(=O)O)C(=O)N[C@@H](Cc1ccc(O)cc1)C(=O)N[C@@H](CCCCNC(=O)COCCOCCNC(=O)COCCOCCNC(=O)CC[C@H](NC(=O)CCCCCCCCCCCCCCCCCCC(=O)O)C(=O)O)C(=O)N[C@@H](CC(C)C)C(=O)N[C@@H](CCC(=O)O)C(=O)NCC(=O)NCC(=O)N1CCC[C@H]1C(=O)N[C@@H](CO)C(=O)N[C@@H](CO)C(=O)NCC(=O)N[C@@H](C)C(=O)N1CCC[C@H]1C(=O)N1CCC[C@H]1C(=O)N1CCC[C@H]1C(=O)N[C@@H](CO)C(N)=O)C(C)C (stereo partly shown) | – | – | human, type 2 diabetes | subcutaneous, 25 mg single dose, geometric mean | – | AUC(0-inf) | 1200 µg·h/mL
O=c1oc2cc(O)ccc2c2ccc(O)cc12 | rep main protease | microscale thermophoresis | SARS-CoV-2 | overnight, pH 8, 4 °C | – | Kd | 44.5 ± 7.1 µM
NC(=O)c1cccc(CCN(CC[C@H](N)C(=O)O)C[C@H]2O[C@@H](n3cnc4c(N)ncnc43)[C@H](O)[C@@H]2O)c1 | Replicase polyprotein 1ab, nsp14 (rep, Severe acute respiratory syndrome coronavirus 2, UniProt P0DTD1) | binding to nsp14, surface plasmon resonance | – | – | – | Kd | 0.2 µM
CN(C)CCCNC(=O)C[C@H](Cc1ccc(F)cc1)NC(=O)[C@@H](Cc1ccc(Cl)cc1Cl)NC(=O)[C@H](N)Cc1ccccc1C#N | rep main protease | binding, SPR | – | – | – | Kd | 0.063 µM
CC(=O)Oc1ccc(/C=C/C(=O)O[C@@H]2Cc3c(O)cc(O)cc3O[C@@H]2c2ccc(O)c(O)c2)cc1OC(C)=O | rep main protease | binding, SPR | – | – | – | Kd | 2.44 µM
CCC(C)C(NC(=O)c1[nH]nc2c1CCC2)c1nc2ccccc2[nH]1 (stereo not shown) | Replicase polyprotein 1ab, nsp3 macrodomain (rep, Severe acute respiratory syndrome coronavirus 2, UniProt P0DTD1) | binding, microscale thermophoresis | – | 4% DMSO | – | Kd | 36.3 ± 2 µM
Cc1oc2nc1C(=O)N[C@](C)(C(=O)NCCc1ccc(N(C)C)cc1)c1nc(c(C)o1)C(=O)N[C@](C)(C(=O)NCCc1ccc(N(C)C)cc1)c1nc(c(C)o1)C(=O)N[C@]2(C)C(=O)NCCc1ccc(N(C)C)cc1 | SARS-CoV-2 | – | Vero E6, NRC-03-nhCoV | – | relative to: CC50 over IC50 | selectivity index | 2.5
CC(C)C[C@H](NC(=O)[C@H](CO[C@@H]1O[C@H](CO)[C@@H](O[C@@H]2O[C@H](CO)[C@H](O)[C@H](O)[C@H]2O)[C@H](O)[C@H]1O)NC(=O)[C@H](CCCCN)NC(=O)[C@H](CC(C)C)NC(=O)C(C)(C)NC(=O)[C@H](CCCCN)NC(=O)[C@H](CCC(=O)O)NC(=O)C(C)(C)NC(=O)[C@H](CC(C)C)NC(=O)[C@H](CC(N)=O)NC(=O)[C@@H]1CCCN1C(=O)[C@H](CC(C)C)NC(=O)[C@H](Cc1ccccc1)NC(=O)CNC(=O)[C@H](NC(=O)[C@@H](N)Cc1ccc(O)cc1)[C@H](C)O)C(N)=O | Mu-type opioid receptor (OPRM1, Homo sapiens, UniProt P35372) | radioligand displacement | CHO membranes | 60 min, pH 7.5, 25 °C, together with: 0.25 nM [3H]DAMGO | – | Ki | 0.021 ± 0.0009 µM
CCCCCCCCCCCCCCCC(=O)N[C@@H](CCC(=O)NCCOCCOCCC(=O)NCCOCCOCCC(=O)NCCCC[C@H](NC(=O)[C@H](CC(=O)O)NC(=O)[C@H](CC(C)C)NC(=O)[C@H](Cc1ccc(O)cc1)NC(=O)[C@H](CCCCN)NC(=O)[C@H](CO)NC(=O)[C@H](Cc1ccc(O)cc1)NC(=O)[C@H](CC(=O)O)NC(=O)[C@H](CO)NC(=O)[C@@H](NC(=O)[C@H](Cc1ccccc1)NC(=O)[C@@H](NC(=O)CNC(=O)[C@H](CCC(N)=O)NC(=O)[C@@H](CO)NC(=O)[C@@H](N)Cc1c[nH]cn1)[C@@H](C)O)[C@@H](C)O)C(=O)N[C@@H](CCCNC(=N)N)C(=O)N[C@@H](CCCNC(=N)N)C(=O)N[C@@H](C)C(=O)N[C@@H](CCC(N)=O)C(=O)N[C@@H](CC(=O)O)C(=O)N[C@@H](Cc1ccccc1)C(=O)N[C@H](C(=O)N[C@@H](CCC(N)=O)C(=O)N[C@@H](Cc1c[nH]c2ccccc12)C(=O)N[C@@H](CC(C)C)C(=O)N[C@@H](CC(C)C)C(=O)N[C@@H](CC(N)=O)C(=O)N[C@H](C(=O)NCC(=O)NCC(=O)N1CCC[C@H]1C(=O)N[C@@H](CO)C(=O)N[C@@H](CO)C(=O)NCC(=O)N[C@@H](C)C(=O)N1CCC[C@H]1C(=O)N1CCC[C@H]1C(=O)N1CCC[C@H]1C(=O)N[C@@H](CO)C(N)=O)[C@@H](C)O)C(C)C)C(=O)O | – | – | rhesus monkey | subcutaneous, 60 µg/kg, single dose | – | Tmax | 2.67 ± 1.03 h
COc1ccc(C(C)NC(=O)c2cc(N)ccc2C)cc1OC (stereo not shown) | Replicase polyprotein 1ab, papain-like protease (rep, Severe acute respiratory syndrome coronavirus 2, UniProt P0DTD1) | binding | – | – | – | Kd | 26.7 µM
O=S(=O)(O)c1cccc2cccc(Nc3ccccc3)c12 | rep main protease | binding, fluorescence | – | – | – | Kd | 57 µM
COC(=O)C[C@H](c1ccc(O)cc1)c1c(O)cc(O)c2c1O[C@H](c1cc(O)c(O)c(O)c1)[C@H](OC(=O)c1cc(O)c(O)c(O)c1)C2 | rep main protease | binding, SPR | – | – | – | Kd | 2.25 µM
COc1ccc(-c2oc3cc(O)cc(O)c3c(=O)c2O)c(OC)c1O | rep main protease | binding | – | – | – | Kd | 1.09 µM
CC(=O)N[C@H](Cc1ccc(O)cc1)C(=O)N[C@@H](CCCNC(=N)N)C(=O)N[C@@H](Cc1ccccc1)C(=O)N[C@H]1CCC[C@@H]1C(=O)N[C@@H](CCCNC(=N)N)C(=O)N[C@@H](CC(N)=O)C(=O)N[C@H]1CCC[C@@H]1C(=O)N[C@H](C(=O)N[C@@H](Cc1ccccc1)C(=O)N[C@H]1CCC[C@@H]1C(=O)N[C@@H](Cc1ccccc1)C(=O)N[C@@H](Cc1ccc(O)cc1)C(=O)N[C@H]1CCC[C@@H]1C(=O)N[C@H](C(=O)N[C@@H](CC(=O)O)C(N)=O)[C@@H](C)O)C(C)C | rep main protease | binding, SPR | – | – | – | Kd | 0.00883 µM
O=c1c2cccc([N+](=O)[O-])c2[se]n1Cc1ccccc1 | rep main protease | cell-free assay | – | – | – | Kd | 7.3 µM
O=c1oc2cc(O)ccc2c2ccccc12 | rep main protease | microscale thermophoresis | SARS-CoV-2 | overnight, pH 8, 4 °C | – | Kd | > 250 µM
O=C(/C=C/c1ccc(O)cc1)O[C@@H]1Cc2c(O)cc(O)cc2O[C@@H]1c1cc(O)c(O)c(O)c1 | rep main protease | binding, SPR | – | – | – | Kd | 4.28 µM
Cc1oc2nc1C(=O)N[C@](C)(C(=O)OC(C)C)c1nc(c(C)o1)C(=O)N[C@](C)(C(=O)OC(C)C)c1nc(c(C)o1)C(=O)N[C@]2(C)C(=O)OC(C)C | SARS-CoV-2 | – | Vero E6, NRC-03-nhCoV | – | relative to: CC50 over IC50 | selectivity index | 20.8
O=c1cc(-c2ccccc2)oc2c(Br)c(O)c(O)c(O)c12 | chikungunya virus | – | C57BL/6 mouse, CHIKV-infected, plasma | oral, 250 mg/kg twice daily, 2 h after dose 5 | – | Cmax | 10000 ± 5420 ng/mL

Some of these lines once more:
SMILES | target or system | test | test system | setting | scale | measurement | value
COc1ccc(-c2oc3cc(O)cc(O)c3c(=O)c2O)c(OC)c1O | rep main protease | binding | – | – | – | Kd | 1.09 µM
CC(=O)N[C@H](Cc1ccc(O)cc1)C(=O)N[C@@H](CCCNC(=N)N)C(=O)N[C@@H](Cc1ccccc1)C(=O)N[C@H]1CCC[C@@H]1C(=O)N[C@@H](CCCNC(=N)N)C(=O)N[C@@H](CC(N)=O)C(=O)N[C@H]1CCC[C@@H]1C(=O)N[C@H](C(=O)N[C@@H](Cc1ccccc1)C(=O)N[C@H]1CCC[C@@H]1C(=O)N[C@@H](Cc1ccccc1)C(=O)N[C@@H](Cc1ccc(O)cc1)C(=O)N[C@H]1CCC[C@@H]1C(=O)N[C@H](C(=O)N[C@@H](CC(=O)O)C(N)=O)[C@@H](C)O)C(C)C | rep main protease | binding, SPR | – | – | – | Kd | 0.00883 µM
